Results of several laboratories.
A part holds a random share of what one study measured. Substitutions count along the parent as printed.

Block 1
Target: Interferon regulatory factor 5, full length, phosphomimetic (IRF5, Homo sapiens, UniProt Q13568-2, residues 1-514, K96S/S451D/S453D/S456D/S462D)
Method: protein-binding microarray
Molecule type: double-stranded DNA, one strand shown
Matrix: in vitro
Concentration: 250 nM
Setting: 60-bp whole probe
With: salmon DNA 0.4 mg/ml
Relative to: random background probes
Reading: higher = stronger binding
Measurement: log fluorescence
All sequences stand within: GCCTAGCAC … GTCTTGATTCGCTTGACGCTGCTG
Strand = TCGTAAGCAAAAATGATTGGGTGCTAG; value = 0.264 z-score
Strand = GACGGACTGGACTTTCCGGACGTGCTA; value = -0.495 z-score
Strand = TTAGATATCGAGACTGGATTAGTGCTA; value = 1.47 z-score
Strand = GGGGTTAGGGTCATTCATTCGTGCTAG; value = -0.368 z-score
Strand = GTCGATATCAGTTTCGAGACGTGCTAG; value = 7.83 z-score
Strand = TCAAAACTCTTTATTTAACTGTGCTAG; value = 0.709 z-score
Strand = GACGGTATCCTTCTCCTTACGTGCTAG; value = 0.305 z-score
Strand = ATAGGTATCGGTTTCGGTTAGTGCTAG; value = 11 z-score
Strand = TTAGGTCTCGGTTTCGGTTAGTGCTAG; value = 8.67 z-score
Strand = TCTTTTTTTTCTTTAAAAGTGTGCTAG; value = 1.44 z-score
Strand = TTAGATATCAGTTTCGGTTAGTGCTAG; value = 10.5 z-score
Strand = CCTAGCCTCCCAGCCCAGCAGTGCTAG; value = -0.72 z-score
Strand = GAAGGACTGGGTCTCGGGACGTGCTAG; value = -0.691 z-score
Strand = TCCCTATTATATATATCATAGTGCTAG; value = 0.804 z-score
Strand = GACGGACAGCTTATCCTGACGTGCTAG; value = -0.629 z-score
Strand = GACGGTTTCGGGTATCTGGACGTGCTA; value = 7.98 z-score
Strand = TTAGGTTTCGGGTTTCGGCTAGTGCTA; value = 8.37 z-score
Strand = GACGGTCTCGGACAGGGGACGTGCTAG; value = -0.353 z-score
Strand = TTAGATATCGACACTGGGTTAGTGCTA; value = 1.37 z-score
Strand = TTAGAACTGAGGATCGATTAGTGCTAG; value = 0.0883 z-score
Strand = GACGGTTTCGGGTATCGGGAGGTGCTA; value = 8.16 z-score
Strand = GACGGACTGGGTTTTGGGACGTGCTAG; value = -0.158 z-score
Strand = GACGCACTGCTACTGCTGACGTGCTAG; value = -0.329 z-score
Strand = TTATAACTGAGACTGGATTAGTGCTAG; value = 0.126 z-score
Strand = TGTCCTTTCTCCATGGGTATGTGCTAG; value = 1.24 z-score

Block 2
Target: NFE2L3, bZIP domain (human)
Method: DHFR protein complementation
Matrix: yeast
Setting: single substitutions, most at no-binding floor
Relative to: wild-type JUN-FOS pair
Reading: higher = stronger binding
Measurement: binding fitness
Starting sequence: JUN, bZIP domain (human); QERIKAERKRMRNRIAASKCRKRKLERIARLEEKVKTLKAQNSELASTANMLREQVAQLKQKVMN; partner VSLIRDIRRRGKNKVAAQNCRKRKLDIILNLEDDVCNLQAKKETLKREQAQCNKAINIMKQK
Substitution = L31Q; value = -1.55 natural log
Substitution = K39I; value = -1.6 natural log
Substitution = Q55L; value = -1.38 natural log
Substitution = N42R; value = -1.46 natural log
Substitution = L52I; value = -1.59 natural log
Substitution = E32P; value = -1.49 natural log
Substitution = T48A; value = -1.43 natural log
Substitution = Q55K; value = -1.57 natural log
Substitution = E33C; value = -1.57 natural log
Substitution = E32S; value = -1.54 natural log
Substitution = Q41C; value = -1.53 natural log
Substitution = V56E; value = -1.5 natural log
Substitution = I28H; value = -1.58 natural log
Substitution = Q41W; value = -1.36 natural log
Substitution = L45T; value = -1.51 natural log
Substitution = K36R; value = -1.37 natural log

Block 3
Target: CCND3, cyclin fold, Cln2 fusion (human)
Method: yeast growth competition, sequencing
Matrix: yeast
Setting: weak parent motif
Relative to: not given
Reading: higher = stronger binding
Measurement: normalised enrichment score
Starting sequence: SAMHD1 docking peptide (human); ASKSRVQLFKDDP; partner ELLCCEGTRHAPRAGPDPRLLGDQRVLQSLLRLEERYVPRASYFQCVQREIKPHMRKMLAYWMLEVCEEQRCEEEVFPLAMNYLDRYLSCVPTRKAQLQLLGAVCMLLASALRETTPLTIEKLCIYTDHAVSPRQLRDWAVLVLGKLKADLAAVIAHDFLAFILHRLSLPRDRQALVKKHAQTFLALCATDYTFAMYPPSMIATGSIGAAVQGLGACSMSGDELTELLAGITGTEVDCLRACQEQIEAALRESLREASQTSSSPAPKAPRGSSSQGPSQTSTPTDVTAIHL
Substitution = S4N; value = -0.0467
Substitution = L8K; value = 0.308
Substitution = K10I; value = 0.187
Substitution = V6D; value = -0.262
Substitution = S4K; value = -0.478
Substitution = D11G; value = 0.624
Substitution = D11F; value = 0.119
Substitution = D11V; value = 0.218
Substitution = L8I; value = 0.109
Substitution = K3W; value = 0.211
Substitution = F9R; value = -0.0483
Substitution = V6A; value = -0.0321
Substitution = F9V; value = 0.265
Substitution = K10F; value = -0.754
Substitution = R5W; value = 0.276
Substitution = F9D; value = 0.31
Substitution = K3T; value = -0.0495
Substitution = D12G; value = 0.171

Block 4
Target: ABI1, truncated, D143A, DHFR fusion (Arabidopsis thaliana)
Method: DHFR PCA, deep sequencing
Matrix: yeast
Setting: methotrexate growth selection, single substitutions
With: (+)-ABA 0.0091 µM
Relative to: wild-type fitted maximum
Reading: higher = stronger binding
Measurement: relative binding score
Starting sequence: PYL1, truncated, DHFR fusion (Arabidopsis thaliana); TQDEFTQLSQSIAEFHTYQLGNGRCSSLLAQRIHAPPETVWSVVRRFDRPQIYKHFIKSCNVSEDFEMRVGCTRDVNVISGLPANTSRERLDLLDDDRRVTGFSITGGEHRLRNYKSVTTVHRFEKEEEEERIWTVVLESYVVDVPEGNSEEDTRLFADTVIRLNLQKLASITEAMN
Substitution = V142W; value = -1.05%
Substitution = L156E; value = 1.72%
Substitution = V70K; value = 3.67%
Substitution = A170G; value = -0.574%
Substitution = L112F; value = 4.9%
Substitution = L28E; value = 3.81%
Substitution = L169N; value = -1.39%
Substitution = A84G; value = 46.1%
Substitution = S80K; value = 1.66%
Substitution = A30Q; value = -4.04%
Substitution = P146W; value = -0.165%
Substitution = C72L; value = -0.0219%
Substitution = I162H; value = 4.99%
Substitution = L164S; value = 4.28%
Substitution = S117P; value = 0.523%
Substitution = D97T; value = 40.4%
Substitution = V100K; value = -5.98%
Substitution = S42T; value = 3.63%

Block 5
Target: Ras GTPase-activating protein-binding protein 1, full length (G3BP1, Homo sapiens, UniProt Q13283)
UniProt Q13283, sequence (whole entry, looked up): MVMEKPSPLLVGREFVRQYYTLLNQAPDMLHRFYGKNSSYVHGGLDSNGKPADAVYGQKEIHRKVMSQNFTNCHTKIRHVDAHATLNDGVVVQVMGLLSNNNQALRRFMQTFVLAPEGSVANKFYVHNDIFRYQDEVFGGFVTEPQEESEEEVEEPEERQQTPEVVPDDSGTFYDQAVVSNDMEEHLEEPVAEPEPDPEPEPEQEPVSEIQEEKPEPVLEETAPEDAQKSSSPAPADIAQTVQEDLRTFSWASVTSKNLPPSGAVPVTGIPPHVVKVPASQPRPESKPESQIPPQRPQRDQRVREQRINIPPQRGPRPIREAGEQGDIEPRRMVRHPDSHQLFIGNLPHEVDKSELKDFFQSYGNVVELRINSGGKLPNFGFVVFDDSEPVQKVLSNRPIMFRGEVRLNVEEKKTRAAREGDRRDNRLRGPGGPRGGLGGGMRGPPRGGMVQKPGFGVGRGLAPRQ
Method: RNA Bind-n-Seq
Molecule type: RNA
Matrix: in vitro
Concentration: 200 nM
Setting: whole 134-nt RNA, ends assumed
With: 150 mM LiCl
Relative to: input library
Reading: higher = stronger binding
Measurement: log2 enrichment
All molecules: 7-deaza-guanosine replaces G
Strand = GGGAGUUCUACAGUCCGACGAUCACCAUGCAGGUGGGCAUCUUUGGGAAGUGGGGCAAGGGGGGGAUAGGGAGGGGGGUAACACUUUGGGAACAGAAAGUCCCAGGUCGUUUCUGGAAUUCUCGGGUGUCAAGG; value = 0.108
Strand = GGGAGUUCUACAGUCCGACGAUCACCAUGCAGGUGGGCAUCUUUGGGAAGUGGGGCAAGGGGGGGAUAGGGAGUGGGGUAACACUUUGGGAACAGGUGGUCCCAGGUCGUUUCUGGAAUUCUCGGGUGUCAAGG; value = 0.384
Strand = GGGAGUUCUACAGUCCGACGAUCCACAGACAACACGCACCCACACAGACACAGAGGGAAGGGGUUGGGAUGGGGACAGAAAGCACAGCAGGGCGGGGUAGGACCCCAGCCCCUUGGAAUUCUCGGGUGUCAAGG; value = -0.00919
Strand = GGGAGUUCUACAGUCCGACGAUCUCAAGUCCUGUGCUACACAUCGUAUGUACCGAAUCGGUUUGGGGUUUGGUUUGGGAAAGUAUUAUGUUACGCCGUUCGGAUCUGCACUUCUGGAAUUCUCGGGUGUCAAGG; value = -1.23
Strand = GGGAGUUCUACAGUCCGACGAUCUCAAGUCCUGUGCUACACAUCGUAUGUACCGAAUCGGGUUGGUUGGGGUUGGGGAAAGUAUUAUGUUACGCCGUUCGGAUCUGCACUUCCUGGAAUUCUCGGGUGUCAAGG; value = -0.545
Strand = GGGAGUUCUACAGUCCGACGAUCCUCAAGUCCUGUGCUACACAUCGUAUGUACCGAAUCGGUUUGGUUUGGAAAGGAAAGUAUUAUGUUACGCCGUUCGGAUCUGCACUUCCAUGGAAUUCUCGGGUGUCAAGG; value = 0.302
Strand = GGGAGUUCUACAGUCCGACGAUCUGGGAGGUGGAUUUUGUUUAUUUUUUUAGCUCAUUUCCAGGCGUGGGAAUUUUUUUUUAAUAUGUGUCAUGAAUAAAGUUGUUUUUGAAAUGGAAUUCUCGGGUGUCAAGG; value = -0.898
Strand = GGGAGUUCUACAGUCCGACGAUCAGUCCUGUGCUACACAUCGUAUGUACCGAAUCGGUUUUUUUGGAAAAAAAGGAAAGGAAAGUAUUAUGUUACGCCGUUCGGAUCUGCACUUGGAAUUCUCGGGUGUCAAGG; value = -2.92
Strand = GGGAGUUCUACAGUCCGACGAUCUCCUGUGCUACACAUCGUAUGUACCGAAUCGGGGUUUUUGGGGAAAAAAAGGGGUGGGGAAAGUAUUAUGUUACGCCGUUCGGAUCUGCAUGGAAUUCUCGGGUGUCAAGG; value = -0.368
Strand = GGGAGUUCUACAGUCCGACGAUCUCCUGUGCUACACAUCGUAUGUACCGAAUCGGCCCCCCGGGCCCCCCGGGGCCCCCCGGAAAGUAUUAUGUUACGCCGUUCGGAUCUGCAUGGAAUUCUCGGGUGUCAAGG; value = -0.587
Strand = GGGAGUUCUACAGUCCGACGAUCUCAAGUCCUGUGCUACACAUCGUAUGUACCGAAUCGGGAAAGGGAGGGUUUGGGAAAGUAUUAUGUUACGCCGUUCGGAUCUGCACUUCCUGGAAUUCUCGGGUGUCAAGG; value = -0.0331

For quick reference, copied from above (block 3):
Substitution = D11V; value = 0.218
Substitution = R5W; value = 0.276
Substitution = F9V; value = 0.265
Substitution = K10F; value = -0.754
Substitution = F9D; value = 0.31
Substitution = D11G; value = 0.624
Substitution = D12G; value = 0.171
Substitution = K3W; value = 0.211
Substitution = D11F; value = 0.119
Substitution = K10I; value = 0.187
Substitution = S4K; value = -0.478
Substitution = V6A; value = -0.0321
Substitution = L8K; value = 0.308
